# Assay results from different studies.
# Compare with care: the assays were run in different laboratories.
# B1: IRF3 189-427 (Homo sapiens, UniProt Q14653); phosphorylated by TBK1; sequence looked up; chain ENPLKRLLVPGEEWEFEVTAFYRGRQVFQQTISCPEGLRLVGSEVGDRTLPGWPVTLPDPGMSLTDRGVMSYVRHVLSCLGGGLALWRAGQWLWAQRLGHCHTYWAVSEELLPNSGHGPDGEVPKDKEGGVFDLGPFIVDLITFTEGSGRSPRYALWFCVGESWPQDQPWTKRLVMVKVVPTCLRALVEMARVGGASSLENTVDLHISNSHPLSLTSDQYKAYLQDLVEGMDFQGPGES
# B2: Xrcc1 535-631 (Mus musculus, UniProt Q60596); sequence looked up; chain PELPDFFEGKHFFLYGEFPGDERRRLIRYVTAFNGELEDYMNERVQFVITAQEWDPNFEEALMENPSLAFVRPRWIYSCNEKQKLLPHQLYGVVPQA
# B3: Il2/Il2ra IL-2 fused to CD25 ectodomain (Mus musculus); chain APTSSSTSSSTAEAQQQQQQQQQQQQHLEQLLMDLQELLSRMENYRNLKLPRMLTFKFYLPKQATELKDLQCLEDELGPLRHVLDLTQSKSFQLEDAENFISNIRVTVVKLKGSDNTFECQFDDESATVVDFLRRWIAFCQSIISTSPQGGGSGGGSGGGSELCLYDPPEVPNATFKALSYKNGTILNCECKRGFRRLKELVYMRCLGNSWSSNCQCTSNSHDKSRKQVTAQLEHQKEQQTTTDMQKPTQSMHQENLTGHCREPPPWKHEDSKRIYHFVEGQSVHYECIPGYKALQRGPAISICKMKCGKTGWTQPQLTCVDEREHHRFLASEESQGSRNSSPESETSCPITTTDFPQPTETTAMTETFVLTMEYKGG
# B4: aqpZ 1-231 C20S (Escherichia coli, UniProt P60844); chain MFRKLAAECFGTFWLVFGGSGSAVLAAGFPELGIGFAGVALAFGLTVLTMAFAVGHISGGHFNPAVTIGLWAGGRFPAKEVVGYVIAQVVGGIVAAALLYLIASGKTGFDAAASGFASNGYGEHSPGGYSMLSALVVELVLSAGFLLVIHGATDKFAPAGFAPIAIGLALTLIHLISIPVTNTSVNPARSTAVAIFQGGWALEQLWFFWVVPIVGGIIGGLIYRTLLEKRD
# B5: Ern1 499-977 N772Y (Mus musculus, UniProt Q9EQY0); sequence looked up; chain HPHGDLTQDPEFLDSSGPFSESSGTSSPSPSPRASNHSLHPSSSASRAGTSPSLEQDDEDEETRMVIVGKISFCPKDVLGHGAEGTIVYKGMFDNRDVAVKRILPECFSFADREVQLLRESDEHPNVIRYFCTEKDRQFQYIAIELCAATLQEYVEQKDFAHLGLEPITLLHQTTSGLAHLHSLNIVHRDLKPHNILLSMPNAHGRIKAMISDFGLCKKLAVGRHSFSRRSGVPGTEGWIAPEMLSEDCKDNPTYTVDIFSAGCVFYYVISEGYHPFGKSLQRQANILLGACNLDCFHSDKHEDVIARELIEKMIAMDPQQRPSAKHVLKHPFFWSLEKQLQFFQDVSDRIEKEALDGPIVRQLERGGRAVVKMDWRENITVPLQTDLRKFRTYKGGSVRDLLRAMRNKKHHYRELPVEVQETLGSIPDDFVRYFTSRFPHLLSHTYQAMELCRHERLFQTYYWHEPTEPQPPVIPYAL
# B6: Ptpn5 C65S/C76S (Mus musculus, UniProt P54830-1); sequence looked up; chain MCCSERLLGLPQPVEMEAPDEAEGLPSKQKEMPPPPPPSPPSEPAQKLPPQGAGSHSLTVRSSLSLFAASQFLLASGVLWLSGHGHSWLQNTTDLISSSLTVLNHLGPVAWLGSGTWGIPSLLLVSLTVSLVIVTTLVWHLLKAPPEPPAPLPPEDRRQSVSRQPSFTYSEWMEEKVEDDFLDLDAVPETPVFDCVMDIKPETDPASLTVKSMGLQERRGSNVSLTLDMCTPGCNEEGFGYLVSPREESAHEYLLSASRVLRAEELHEKALDPFLLQAEFFEIPMNFVDPKEYDIPGLVRKNRYKTILPNPHSRVRLTSPDPEDPLSSYINANYIRGYSGEEKVYIATQGPIVSTVADFWRMVWQERTPIIVMITNIEEMNEKCTEYWPEEQVVHDGVEITVQKVIHTEDYRLRLISLRRGTEERSLKHYWFTSWPDQKTPDRAPPLLHLVREVEEAAQQEGPHCSPIIVHCSAGIGRTGCFIATSICCQQLRREGVVDILKTTCQLRQDRGGMIQTCEQYQFVHHAMSLYEKQLSLQSSE
# B7: aqpZ 1-231 C20S/G144F (Escherichia coli, UniProt P60844); chain MFRKLAAECFGTFWLVFGGSGSAVLAAGFPELGIGFAGVALAFGLTVLTMAFAVGHISGGHFNPAVTIGLWAGGRFPAKEVVGYVIAQVVGGIVAAALLYLIASGKTGFDAAASGFASNGYGEHSPGGYSMLSALVVELVLSAFFLLVIHGATDKFAPAGFAPIAIGLALTLIHLISIPVTNTSVNPARSTAVAIFQGGWALEQLWFFWVVPIVGGIIGGLIYRTLLEKRD
# B8: UGT1A9 (Homo sapiens, UniProt O60656); chain GKLLVVPMDGSHWFTMRSVVEKLILRGHEVVVVMPEVSWQLGRSLNCTVKTYSTSYTLEDLDREFKAFAHAQWKAQVRSIYSLLMGSYNDIFDLFFSNCRSLFKDKKLVEYLKESSFDAVFLDPFDNCGLIVAKYFSLPSVVFARGILCHYLEEGAQCPAPLSYVPRILLGFSDAMTFKERVRNHIMHLEEHLLCHRFFKNALEIASEILQTPVTEYDLYSHTSIWLLRTDFVLDYPKPVMPNMIFIGGINCHQGKPLPMEFEAYINASGEHGIVVFSLGSMVSEIPEKKAMAIADALGKIPQTVLWRYTGTRPSNLANNTILVKWLPQNDLLGHPMTRAFITHAGSHGVYESICNGVPMVMMPLFGDQMDNAKRMETKGAGVTLNVLEMTSEDLENALKAVINDKSYKENIMRLSSLHKDRPVEPLDLAVFWVEFVMRHKGAPHLRPAAHDLTWYQYHSLDVIGFLLAVVLTVAFITFKCCAYGYRKCLGKKGRVKKAHKSKTH
Substance,target or system,test,test system,conditions,how to read,endpoint,result
B1 (IRF3 189-427),itself,SEC,,,,binding,binds
B2 (Xrcc1 535-631),itself,circular dichroism,,,,apparent melting temperature,54.3 °C
B3,itself,CTLL proliferation,,,"reference: recombinant mIL-2, higher = more active",bioactivity,42 fold
B4 (aqpZ 1-231 C20S),itself,light scattering,proteoliposomes,hyperosmotic shock,,channel permeability,1.13e-13 cm^3 s^–1
CRYAA R21W (Homo sapiens) (sequence not shown),itself,SEC-MALS,,,,binding,binds
B5 (Ern1 499-977 N772Y),itself,AUC,,with: ADP 500 µM,,binding,binds
B6 (Ptpn5 C65S/C76S),itself,pNPP dephosphorylation,HEK 293,immunoprecipitated,"reference: STEP61 WT, higher = more activity",phosphatase activity,4 fold
CRYAA F71L (Homo sapiens) (sequence not shown),itself,SEC,,,,binding,binds
G3BP1 fragment F15W/F33W/F124W (Homo sapiens) (sequence not shown),itself,crystal structure,,,,binding,binds
B7 (aqpZ 1-231 C20S/G144F),itself,light scattering,proteoliposomes,hyperosmotic shock,,channel permeability,1.11e-13 cm^3 s^–1
B8 (UGT1A9),O=c1cc(-c2ccc(O)cc2)oc2ccccc12,steady-state kinetics,,"pH 7.4, 37 °C",,Km,1.46 µM

# Some of these lines once more:
Substance,target or system,test,test system,conditions,how to read,endpoint,result
CRYAA R21W (Homo sapiens) (sequence not shown),itself,SEC-MALS,,,,binding,binds
